Results of several laboratories.
Every numbered part comes from another study and shows a few of its results, in no order.

Set 1
Target: RING finger protein unkempt homolog, zinc fingers 1-6, SBP tag (UNK, Homo sapiens, UniProt Q9C0B0, residues 30-357)
Chain of UniProt Q9C0B0 (30-357, looked up): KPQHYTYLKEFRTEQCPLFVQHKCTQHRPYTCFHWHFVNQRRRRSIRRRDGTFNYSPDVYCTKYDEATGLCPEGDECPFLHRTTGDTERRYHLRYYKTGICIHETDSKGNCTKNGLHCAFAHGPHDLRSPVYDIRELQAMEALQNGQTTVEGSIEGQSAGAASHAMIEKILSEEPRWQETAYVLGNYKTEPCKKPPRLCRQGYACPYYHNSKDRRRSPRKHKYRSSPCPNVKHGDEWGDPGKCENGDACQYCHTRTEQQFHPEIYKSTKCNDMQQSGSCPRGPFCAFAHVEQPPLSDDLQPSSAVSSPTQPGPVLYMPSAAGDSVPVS
Method: RNA Bind-n-Seq
Molecule type: RNA
Medium: in vitro
Concentration: 100 nM
Setting: RNA with constant flanks, vertebrate orthologous sites, ends assumed
Relative to: input RNA pool
Reading: higher = stronger binding
Shared flanks, not repeated: GGGAGUUCUACAGUCCGACGAUC … CAACAGAGGAUUGAGCAUCA
| Oligonucleotide | bound/input enrichment [ratio] |
| --- | --- |
| AUCCCUCAGUGACAGUAUGCCAUCUGUAGCUGAUUCCCACUCUAGUCAUUUUUCUGAAUUUAGUUGUUCUGACCUAGAAAGCAUGAAAACUUCUUGUAGUCAUGGUUCCAAUGAUUAUCA | 3.14 |
| GUUAGGUCAUGACCCAUAUAGGUUAGGUCAUGAUGCCUAUAGGUUAGGGCAGGACCCCUAUAGAUUAGGUCAUGACCCCUAUAGACUAACUCCUGAUCCCUAUAGGAUGUCGCCUAGACC | 1.03 |
| CUACCGUAAACAACUCAGGGCAGUAUUCUCCGUAUCCUUACAGAAACCUAAAUCAGGGAUUAGUUAACAGUACAGGGAUGAAUCAAAAUUUAGGCCUUACAAACAGUACUCCAAUGAACC | 0.83 |
| UAAUUCAAUGGUUGAGGGUUCAGAACUCAAAAAGGUUCGCUCCAACUCUAGAAUUUAUCACAGGUACUUUUUACUGGAUGCCGACAUGCAGAGCCUAAGGUGGGAGCCAUCAAAGAAGGA | 0.207 |
| CUCUCUAAGUGACAGUAUCCCAUCUGUAGCAGAUUCCCACUCAAGUCAUUUUUCUGAGUUUAGUUGCUCUGAUAUGGAAAGUAUGAAAACCUCAUGUAGCCACGGUUCCAAUGAUUACCA | 0.581 |
| CAGCUGAUUCACUCAUUGGGAGAGCUGCACAUAUAGCCGUUCUUGAUUCAGAAAUAUUUUUAGAGAAAUUCUUUCUGGUUGCUGCCCUCAAGUAUUUCCAAUAGGAUAAAAACAUUGUUA | 1.02 |
| AGCAACCCACGGAGGCAGGACUGCGUUUAUAAACGCGCCAAGUAGAUACGGAGCGAACAGUAGGGUGGGCCAACCGAGACCGUGAGGUACUACUCGCCUGCCGUUUAAUUUAUUUUGACG | 0.559 |
| GGUUGAUGUUUUGAAGAAUCACUUAGUGAAAGAAGGUCGGGUAGAUGAAGAAAUUGCACUUAGAAUUAUCAAUGAGGGUGCUGCCAUCCUUCGGAGGGAGAAAACCAUGAUAGAAGUAGA | 0.813 |
| AUUCAAACCUGUGGUGCCCUGGCCCCAUGUGGAAGGGGUGGAAGUGGACUUGGAGUCUAUUAGAAGAAAAAACAAAGCCAAAAAUGAACAAGAGCAUCAAGCUGGGGGUAUCAACCAGCA | 0.402 |
| CCUUCCUUUUUCUAUUUUUUUUCUUUCGUUCUUUCUUUUUUUCCUUUUUUUUCUUUUUUGUAGUUGUUGUUACCCACGCCAUUUUACGUCUCCUUCACUGAAGGGCUAGAGUUUUAACUU | 6.29 |
| CUAUUUAAAUGUUUAAAUUAUAUUUAAUUACCUCAUUCCUGUUCUUUUUCCUUACUGAAAUAGUUUUCAUCUCUAUUAUUGCAAAUAACCUAAAGUUUCUACUUUAGGCUAACUUGUUUU | 0.725 |

Set 2
Target: Histone acetyltransferase KAT6A, winged helix 1, GST fusion (KAT6A, Homo sapiens, UniProt Q92794, residues 1-85)
Method: protein binding microarray
Molecule type: double-stranded DNA, one strand shown
Medium: in vitro
Concentration: not given
Setting: 8-mer, flanks averaged, mean of 2 arrays, mostly near background
Relative to: not given
Reading: higher = stronger binding
Target sequence (chain): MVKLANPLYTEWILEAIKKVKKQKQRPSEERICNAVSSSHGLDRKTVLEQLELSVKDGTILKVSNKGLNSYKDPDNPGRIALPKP
| Oligonucleotide | E-score |
| --- | --- |
| CGTGAGCC | 0.211 |
| GCAAAACA | -0.0916 |
| GATGGGGA | -0.165 |
| CGCAACAC | 0.278 |
| ATACGCTA | 0.208 |
| ACAAAGAG | -0.207 |
| AGGCTGAG | -0.0798 |
| CTAACGGC | 0.316 |
| AAGGATGC | -0.0869 |
| GCTCCAAC | 0.0446 |
| GTACCTAC | -0.12 |
| AAGATTCT | -0.187 |
| ATCGTTGG | -0.232 |
| CCCCCCGC | 0.221 |
| CACATTGA | 0.107 |
| ATGTAAAA | -0.0308 |
| AAGGGAGA | -0.229 |
| ACCGTGCT | -0.0151 |

Set 3
Target: Sal-like protein 4, full length isoform A (SALL4, Homo sapiens, UniProt Q9UJQ4, residues 1-1053)
Chain of UniProt Q9UJQ4 (whole entry, looked up): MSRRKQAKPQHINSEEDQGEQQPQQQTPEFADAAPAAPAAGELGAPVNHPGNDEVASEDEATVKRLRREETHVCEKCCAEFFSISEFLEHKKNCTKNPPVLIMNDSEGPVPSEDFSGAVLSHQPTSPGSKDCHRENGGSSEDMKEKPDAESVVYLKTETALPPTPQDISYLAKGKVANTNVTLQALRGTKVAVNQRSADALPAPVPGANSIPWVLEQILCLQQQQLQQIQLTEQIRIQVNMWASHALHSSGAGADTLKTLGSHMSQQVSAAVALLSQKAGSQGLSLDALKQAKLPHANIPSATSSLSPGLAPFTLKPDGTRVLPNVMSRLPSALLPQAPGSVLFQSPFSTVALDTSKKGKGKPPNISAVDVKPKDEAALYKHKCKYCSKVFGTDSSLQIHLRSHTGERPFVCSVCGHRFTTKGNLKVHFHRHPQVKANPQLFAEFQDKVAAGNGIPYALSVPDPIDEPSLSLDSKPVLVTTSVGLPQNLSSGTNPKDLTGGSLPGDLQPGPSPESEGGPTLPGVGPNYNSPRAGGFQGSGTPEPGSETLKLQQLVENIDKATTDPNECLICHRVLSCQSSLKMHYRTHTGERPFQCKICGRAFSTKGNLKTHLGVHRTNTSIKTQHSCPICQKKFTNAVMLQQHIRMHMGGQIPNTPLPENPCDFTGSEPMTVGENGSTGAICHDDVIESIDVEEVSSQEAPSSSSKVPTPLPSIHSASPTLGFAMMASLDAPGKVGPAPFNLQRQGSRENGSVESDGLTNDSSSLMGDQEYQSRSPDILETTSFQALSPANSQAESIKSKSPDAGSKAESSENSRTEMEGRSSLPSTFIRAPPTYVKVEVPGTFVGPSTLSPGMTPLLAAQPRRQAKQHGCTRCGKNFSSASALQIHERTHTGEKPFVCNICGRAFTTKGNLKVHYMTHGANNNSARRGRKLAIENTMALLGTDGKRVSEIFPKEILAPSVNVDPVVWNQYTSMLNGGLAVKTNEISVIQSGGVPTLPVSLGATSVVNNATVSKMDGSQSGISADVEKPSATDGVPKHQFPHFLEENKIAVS
Method: universal PBM
Molecule type: double-stranded DNA, one strand shown
Medium: in vitro
Concentration: 600 nM
Setting: 8-mer, flanks averaged, mean of replicates
Reading: higher = stronger binding
| Oligonucleotide | E-score |
| --- | --- |
| GACCCGAA | -0.19 |
| ACCTAGAG | -0.0624 |
| GATACCGA | -0.0804 |
| GGCCAGGA | -0.25 |
| ATTGAATA | 0.402 |
| ACTGTCTA | 0.0519 |
| CACCACAG | -0.143 |
| GCCACCTA | -0.169 |
| AGCATCAG | -0.0437 |
| ACAACGCT | 0.0582 |
| GGAATACC | -0.0185 |
| CGCTGAAG | -0.291 |
| AGCCGACT | -0.296 |
| CAACAATA | 0.323 |
| ACGGCCAG | -0.289 |
| CACATCCG | -0.0327 |
| AGCTCTGG | -0.119 |
| GTAACTAC | 0.113 |
| CTCTTGCA | -0.16 |
| AAGACCGG | -0.312 |
| TACTGAAA | 0.306 |
| ACCGACAA | -0.0722 |
| CACTTATG | 0.2 |
| GCTAATAA | 0.275 |
| ATGGGGTG | -0.186 |

Set 4
Target: RNA binding protein fox-1 homolog 2, RRM domain, GST-SBP tag (RBFOX2, Homo sapiens, UniProt O43251-10, residues 100-194)
Method: RNA Bind-n-Seq
Molecule type: RNA
Medium: in vitro
Concentration: 365 nM
Setting: natural RNA segment, single round, ends assumed
Relative to: no-protein control
Reading: higher = stronger binding
Shared flanks, not repeated: GGGAGUUCUACAGUCCGACGAUC … UGGAAUUCUCGGGUGCCAA
Construct (chain): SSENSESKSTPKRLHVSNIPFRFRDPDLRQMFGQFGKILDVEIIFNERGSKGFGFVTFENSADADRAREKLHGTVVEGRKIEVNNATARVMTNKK
| Oligonucleotide | RBNS enrichment (R) |
| --- | --- |
| GCACCUGGGACAACAGCACAGCUGAGCCGCAGACACGAAGACAUUUGUUAAGUUAUCAGCCACGUCUGCAUCACAGACUACAGGUACUACCAUUUAGCGGAGUUAUCUUU | 0.249 |
| CUUCAUCUCAGACUCCUAGGGGAAUGAAAGCUGUCUUCUGUGAAUGUGCAAGGGUUUGGCUCGUGUCAUUUGAAAACUCCUGGCUUAUCUAAUGGGACCAGCUUGUGAAG | 1.36 |
| GAGAGUGACCUCAGGGGACCCAGUGCUGCCACAGGUUGAACAGUGCCAUCAAGUUACGGACAAGGAUUCACAGUGUGCCUGGCUGAUGUCAAUAUUUUCUCAUGUUAAUA | 0.198 |
| CAUCUUUCAGGGCAGAAGAGCAGUGGGUUGGGGAGAGGGGUAAGGUCCAGUGGAGUGGGGGAAUGCUUCCAUUUGUUCUGCCCUCCCUUACUGCCCAGAAUGUUAGCAUA | 1.51 |
| AGGCCGUGAUCACAUAUUCUACAGUCCAAAAGAGGGCCCGGAGCUCAGCAAUUACUCACGCCGUCACAUGUGCCCACAGUAGCGGGCUCCGCGGCGUGGCUCCUGCUGCC | 0.249 |
| AGCCUCAACUGUAACCUGCAGCAAACAGAGAAAUAACAUUCCUGGCAGGAAGAUACAAGUCUUUUUAAAGUUUACUGAUGCUUAACUCUGUGGGCUCGUAGUCCUCUGAA | 0.27 |
| GAGAGCUAUUGGAGUGAGAGCUGAGGUGUCCUUAACCACUUUUUCUCUCCUAGAUUCAUUUUCAUUAUUUAUGCUAGGAUUUUCUUAUGGUUGACAUUUGAUGACAGGAA | 0.359 |
| CUUGAGGUCUCUCCUUUGAGCCGUGGUCACCGAGAGGGUUGAGGACGCAGCACCCGAGGUCCCAGCCUUUGCAGGAGCCUCCCUGGGCUUAGCUGGACUUAGAUCUUCGG | 0.293 |
| UAGAACAUAUCACAUUGCAACACCCUAAAUUGUUUUUAAUACAUUAGCAAUCUAUUGGGUCAACUGACAUCCAUUGUAUAUACUAGUUUCUUUCAUGCUAUUUUUAUUUU | 0.623 |
| UCCUACCCAUACUUCCUUCUCUGAGACUAUUCCAUGGGACCCACUUCCCUCUGGGUUCUCCUUUCCCCAGACAGCUGUAGGGGCACAUGGUAGGGAAGCAGCAUAGGCCC | 0.301 |
| GUGUAUUUUUGUUUUUUAUAGUUCUAGGUUUACAACAGAGAGGAGUUAAUUUAUCAACAGCCUAAAACUGUUGCCAGGUCAUCUUACAGUUUAAAACAUGCCAUCUCAUC | 0.383 |
| ACCAUUUGACACACUAUAGAUUCCAAACAUAACGUUGCACCAAAUAGAAAUGUAUAUUUUAUUAUGCAAUGCCUUAGUCAUAAACUGGGCUCAAACAAUUCUCAGCCUAA | 0.187 |

Set 5
Target: PABPC1L2, full length, GST fusion (mouse, UniProt A0ABA7IW68)
Method: RNAcompete
Molecule type: RNA
Medium: in vitro
Concentration: 20 nM
Setting: 7-mer, probes averaged, single round
Relative to: mean of 7-mers
Reading: higher = stronger binding
| Oligonucleotide | 7-mer Z-score |
| --- | --- |
| GGCGUGA | 0.0859 |
| GACCGGG | 0.00979 |
| AUAAGGG | 0.263 |
| ACAUCGC | -0.191 |
| UUCAGAG | -0.159 |
| ACAUAGU | -0.0899 |
| GUACAGA | -0.0047 |
| GUCGCAA | -0.0554 |
| CGGACAG | 0.191 |
| CGAUGGA | 0.166 |
| CUGUACU | -0.418 |
| UUAGGGA | 0.124 |
| AGCUUGA | -0.142 |
| GAGACGG | 0.244 |
| CAUGGAC | 0.00617 |
| ACGCCGC | -0.229 |
| UUGGGGU | -0.05 |
| UUGUUAC | -0.306 |
| UGGCUUG | -0.151 |
| AGGACAC | 0.18 |
| UUAGGUG | -0.00289 |
| UGUAUGG | -0.157 |
| UGCUGGU | -0.269 |
| AGGGUUA | 0.278 |
| AGUAUUG | -0.208 |

Excerpt of the above (set 2):
| Oligonucleotide | E-score |
| --- | --- |
| CCCCCCGC | 0.221 |
| GTACCTAC | -0.12 |
| AAGATTCT | -0.187 |
| CTAACGGC | 0.316 |
| CGTGAGCC | 0.211 |
